Published values collected from several papers.
A part holds a random share of what one study measured. Changes are numbered by the printed parent chain.

Study 1 — method: Sort-seq; measured: YFP reporter; sample: E. coli; setting: PhoQ-PhoP variant library; with: 10 µM Mg2+; relative to: high Mg2+ state; direction: higher = stronger signaling; endpoint: fold induction
Molecule: PhoQ, residues 284 288 289 292 302 303 ASSHFY
PhoP, residues 12 14 15 18 19 QQAYL (Escherichia coli, UniProt P23836): 21.2
PhoP, residues 12 14 15 18 19 LFHKL (Escherichia coli, UniProt P23836): 8.96
PhoP, residues 12 14 15 18 19 GMGLL (Escherichia coli, UniProt P23836): 1.94

Study 2 — target: CCNE1, cyclin fold, Cln2 fusion (human); method: yeast growth competition, sequencing; sample: yeast; setting: weak parent motif; relative to: not given; direction: higher = stronger binding; endpoint: normalised enrichment score
Starting sequence: MICAL3 docking peptide (human); LQLRRQLSFSEDS
Q6F: 0.103
Q2S: 1.39
R5Y: 0.0935
R5H: -0.114
L3I: 2.52
E11L: 1.26
F9L: -0.173
R5S: -0.12
Q6T: 0.684
Q2V: 1.19
L7S: -0.349
Q6S: 0.465

Study 3 — method: RNA Bind-n-Seq; molecule type: RNA; sample: in vitro; concentration: 365 nM; relative to: no-protein control; direction: higher = stronger binding; endpoint: RBNS enrichment (R)
Target: RNA binding protein fox-1 homolog 2, RRM domain, GST-SBP tag (RBFOX2, Homo sapiens, UniProt O43251-10, residues 100-194)
Setting: natural RNA segment, single round, ends assumed
Shared flanks, not repeated: GGGAGUUCUACAGUCCGACGAUC … UGGAAUUCUCGGGUGCCAA
Construct (chain): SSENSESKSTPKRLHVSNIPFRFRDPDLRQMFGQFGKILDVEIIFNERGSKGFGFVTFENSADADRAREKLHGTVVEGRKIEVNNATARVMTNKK
AGUAGGGAUUGACUACUAGACUGUGUGUUUUAUCAAAGUGUGUAAGAAUAAAAACUCACUUGCACGAAUUGAAACGUAAAGAAAUGACACUUGUGAACGUGUGAACGUUA: 0.631
CUUUUCCCACCAACUCCUAUUUCCCUACCAACCAAGGAGCCUCCAGAAGGAAAGGAGGAAGAAAUGUUUUCUUAGGGGAAUUCGCUAGGUUUUAACGAUUUGUUUCUCCU: 0.449
UUUUUUCUCCCCAUCCCACUUAAGGUGAUGGGGCAAGGGAAGAACUCAGCUCCCCUCCCCUGAAUUAUAUUUGUAUGCUGGGUGGCCUGGCUGAUGCUCAGAGGCCUCCU: 3.08
GGGAUCCAGAAUAUACCCCAAAGAGCAAGAAGUACUUCUUGCAUGACGACAGAGAUGAUGGUGUGGAUUAUUGGGCCAAAAGAGGAAGAGGUCGUGGUACUUUUCAACGU: 1.34
UCUUAACAGGUACGGCACACACAAGUUAAUAGUACUCUGCUAUAGGUGCUAUGUUACUUACAAGUAUUAUUAACCUAUUGGCUUCCAUUGUAUAGUAGUUUAGUAACUAU: 0.533
AGCUGCAUGGGCCUCCACACCACCUUGGGAACCCCAUGGCACUGCCCUUCAGGGAAGCCGACCAGCCCAUGGAGACCGAGCCCAGGCACCCUUCGGACCCGCUGCCCCUG: 0.391
CUUCUCCCCUCUUGCAUUCAAGAUUAUGAAACUUUGCUAUGGGCCCUGCACUUCCUUUGCUUCCUCCUGUUCACCCUGGUGGUGUACGGAUGAGGCGGGGAGGUGGGACC: 0.347
GUGUGGCAACCCUGCUCUGUGCUCUGAAACCAAAGUGUGUCCUGUCUUGUCUGUCUCUCACCCUGCCAAAAGCAAGUGUCUAAUCACUGAUGCUGACCAGCCUGUUACAG: 0.349

Study 4 — method: universal PBM; molecule type: double-stranded DNA, one strand shown; sample: in vitro; concentration: 600 nM; direction: higher = stronger binding; endpoint: E-score
Target: Sal-like protein 4, full length isoform A (SALL4, Homo sapiens, UniProt Q9UJQ4, residues 1-1053)
UniProt Q9UJQ4, sequence (whole entry, looked up): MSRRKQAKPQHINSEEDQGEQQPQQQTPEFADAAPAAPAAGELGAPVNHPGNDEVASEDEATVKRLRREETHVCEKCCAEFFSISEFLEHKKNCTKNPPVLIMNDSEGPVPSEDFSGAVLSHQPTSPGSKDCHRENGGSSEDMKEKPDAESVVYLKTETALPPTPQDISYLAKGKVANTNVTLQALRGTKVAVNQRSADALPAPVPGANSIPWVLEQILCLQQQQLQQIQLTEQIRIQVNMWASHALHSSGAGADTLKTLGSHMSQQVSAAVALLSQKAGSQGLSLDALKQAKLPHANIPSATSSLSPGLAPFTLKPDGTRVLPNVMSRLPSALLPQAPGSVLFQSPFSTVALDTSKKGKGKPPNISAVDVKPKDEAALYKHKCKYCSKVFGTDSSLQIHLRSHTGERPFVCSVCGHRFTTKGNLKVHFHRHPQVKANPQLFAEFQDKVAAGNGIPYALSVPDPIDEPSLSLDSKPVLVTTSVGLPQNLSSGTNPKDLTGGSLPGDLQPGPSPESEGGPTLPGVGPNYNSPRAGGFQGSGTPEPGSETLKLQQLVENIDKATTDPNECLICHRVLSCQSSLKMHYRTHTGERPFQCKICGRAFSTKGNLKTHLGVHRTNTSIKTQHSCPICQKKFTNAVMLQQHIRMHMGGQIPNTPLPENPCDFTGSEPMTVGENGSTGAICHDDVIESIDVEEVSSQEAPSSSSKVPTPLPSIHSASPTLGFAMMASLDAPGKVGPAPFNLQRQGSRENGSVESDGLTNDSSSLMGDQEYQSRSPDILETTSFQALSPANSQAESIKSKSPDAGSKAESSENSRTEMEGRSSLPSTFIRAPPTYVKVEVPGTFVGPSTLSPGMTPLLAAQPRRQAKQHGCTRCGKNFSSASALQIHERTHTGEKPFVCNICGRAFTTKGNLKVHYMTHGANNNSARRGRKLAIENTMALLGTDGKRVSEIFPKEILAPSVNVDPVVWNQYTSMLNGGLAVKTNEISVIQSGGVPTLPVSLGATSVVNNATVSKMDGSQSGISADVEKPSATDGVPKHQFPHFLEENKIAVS
Setting: 8-mer, flanks averaged, mean of replicates
AAGGATAA: 0.117
AATCGGGG: -0.14
CGTGCTGA: -0.0133
CCTACAGA: -0.0369
GCCTAGGA: -0.175
AGTCAGTG: 0.0127
ATGCCAGA: 0.074
GTACTCTA: 0.0398
GCTAGCCC: -0.171
GGCCCCTA: -0.334
AAAAAACT: 0.166
ATGTGAAA: 0.28
AAGTACTG: 0.0643
ATAACCTG: 0.163
AAGTTGCG: -0.0711
CGTCGAAC: -0.192
TACTCAAA: 0.2
CTGCGGGA: -0.315
CAACGACC: -0.211

Some of these lines once more (study 3):
CUUUUCCCACCAACUCCUAUUUCCCUACCAACCAAGGAGCCUCCAGAAGGAAAGGAGGAAGAAAUGUUUUCUUAGGGGAAUUCGCUAGGUUUUAACGAUUUGUUUCUCCU: 0.449
UUUUUUCUCCCCAUCCCACUUAAGGUGAUGGGGCAAGGGAAGAACUCAGCUCCCCUCCCCUGAAUUAUAUUUGUAUGCUGGGUGGCCUGGCUGAUGCUCAGAGGCCUCCU: 3.08
GGGAUCCAGAAUAUACCCCAAAGAGCAAGAAGUACUUCUUGCAUGACGACAGAGAUGAUGGUGUGGAUUAUUGGGCCAAAAGAGGAAGAGGUCGUGGUACUUUUCAACGU: 1.34
UCUUAACAGGUACGGCACACACAAGUUAAUAGUACUCUGCUAUAGGUGCUAUGUUACUUACAAGUAUUAUUAACCUAUUGGCUUCCAUUGUAUAGUAGUUUAGUAACUAU: 0.533
AGCUGCAUGGGCCUCCACACCACCUUGGGAACCCCAUGGCACUGCCCUUCAGGGAAGCCGACCAGCCCAUGGAGACCGAGCCCAGGCACCCUUCGGACCCGCUGCCCCUG: 0.391
CUUCUCCCCUCUUGCAUUCAAGAUUAUGAAACUUUGCUAUGGGCCCUGCACUUCCUUUGCUUCCUCCUGUUCACCCUGGUGGUGUACGGAUGAGGCGGGGAGGUGGGACC: 0.347
